Measurements from different studies.
Compare with care: the assays were run in different laboratories. “And” joins repeats or separate records; there may be more than shown. ± marks the error that the study gave.
TOP2B: DNA topoisomerase 2-beta (TOP2B, Homo sapiens, UniProt Q02880)
UCHL1: Ubiquitin carboxyl-terminal hydrolase isozyme L1 (UCHL1, Homo sapiens, UniProt P09936)
ADRA2C: Alpha-2C adrenergic receptor (ADRA2C, Homo sapiens, UniProt P18825)
Voltage-dependent P/Q-type calcium channel subunit alpha-1A: Voltage-dependent P/Q-type calcium channel subunit alpha-1A (Homo sapiens, UniProt O00555)
T1: ssDNA, aptamer; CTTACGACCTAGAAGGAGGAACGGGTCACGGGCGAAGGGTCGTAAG

SMILES | target or system | assay | system | conditions | scale | measurement | value
Nc1nc2c(ncn2[C@@H]2O[C@H](COP(=O)(O)O)[C@@H](O)[C@H]2O)c(=O)[nH]1 | GUK1 (Homo sapiens, UniProt Q16774, R148A) | enzyme activity, NADH-coupled |  | 15.62 µM |  | reaction rate | -0.048 s⁻¹ and 0.91 s⁻¹ and 0.244 s⁻¹
C=CC(=O)N1CCC[C@@H](n2nc(-c3ccc(Oc4ccccc4)cc3)c3c(N)ncnc32)C1 | PTK2 (Homo sapiens, UniProt Q05397) |  |  | 1 µM |  | remaining activity | 119%
O=C(C[C@@H](C(F)F)n1ccc(F)n1)N1CCC(O)(Cn2cnc3c(cnn3-c3ccc(F)cc3)c2=O)CC1 | USP7 (Homo sapiens, UniProt Q93009, V517G) | isothermal titration calorimetry |  | concentration not given, USP7 V517G |  | binding enthalpy | -68.2 ± 1.38 kJ/mol
c1coc(-c2n[nH]cc2-c2ccnc3ccccc23)c1 | Extracellular signal-regulated kinase 1 (CEK1, Candida albicans, UniProt Q5A1D3) | kinase binding, MIB/MS competition | Candida albicans lysate | 10 µM | relative to: DMSO, negative = stronger binding | log2 fold change | -0.19
Cc1nc(CSc2nc(SCc3ccc(C(C)C)cc3)nc(=O)[nH]2)cs1 | TOP2B | decatenation |  | 15.6 µM |  | mean decatenated DNA | 90.8%
CCNC(=O)/C=C/c1cccc(Br)c1 | SLC6A19 (Homo sapiens, UniProt Q695T7) | inhibitor, L-[14C]leucine uptake | CHO-BC cells | 100 µM, 6 min, unit not given, with: GPNA 3 mM, JPH203 3 µM | relative to: uninhibited cells | remaining transport activity | 0.0295
CC(=O)N[C@@H](Cc1c[nH]cn1)C(=O)N[C@@H](CC(=O)O)C(=O)N1CCC[C@H]1C(=O)N1CCC[C@H]1C(=O)N[C@@H](CC(C)C)C(=O)N[C@@H](Cc1c[nH]cn1)C(=O)N[C@@H](CO)C(=O)N[C@H](C(=O)N[C@@H](C)C(N)=O)[C@@H](C)OP(=O)(O)O | PLK1 (Homo sapiens, UniProt P53350) | polo-box domain binding, isothermal titration calorimetry |  | concentration not given, 25 °C |  | binding stoichiometry | 1.01
Cc1cc(-c2ccnc3[nH]cc(F)c23)cc(F)c1[C@@]1(O)[C@H](C)CN(C(=O)CN)C[C@@H]1C | LATS1 (Homo sapiens, UniProt O95835) | ATP/ADP probe binding, KiNativ | HEK293T lysate | 0.1 µM, Lys1 peptide ALYATKTLR |  | probe labelling inhibition | 21%
O=C(CCl)NCc1ccc(Cl)c(C(F)(F)F)c1 | UCHL1 | covalent, intact protein LC-MS |  | 12.5 µM |  | labelling | 11.3%
CCCCC[C@H](O)/C=C/[C@H]1[C@H](O)CC(=O)[C@@H]1C/C=C\CCCC(=O)O | PTGER1 (Homo sapiens, UniProt P34995, P39S) | IP1 accumulation, agonist | AD293 | 1 h, EP1 P39S mutant |  | Emax | 122 ± 3.02%
Cc1cc(Oc2ncccc2CN2CCN(Cc3ccc(F)cc3)CC2)ccc1-c1c(C)c(=O)[nH]c(=O)n1C | ADRA2C | binding, radioligand binding |  | with: [3H]rauwolscine | relative to: Ki alpha2B over Ki alpha2C | selectivity ratio | 1
CC(=O)c1cc(NS(=O)(=O)c2cc(Cl)cc(Cl)c2O)ccc1F | malate dehydrogenase | enzyme activity, inhibitor |  | 200 µM, pH 7.0, 1% DMSO, aggregation counter-screen |  | remaining activity | 94%
O=C1NCCN1CCN1CCC(c2cn(-c3ccc(F)cc3)c3ccc(Cl)cc23)CC1 | Voltage-dependent P/Q-type calcium channel subunit alpha-1A | ion current, antagonist, automated patch clamp |  |  |  | IC30 | 2.12 µM
COc1cccc(CC(C)NS(=O)(=O)c2c(C)oc(C)c2C(=O)O)c1 (stereo not drawn) | malate dehydrogenase | enzyme activity, inhibitor |  | 200 µM, pH 7.0, 1% DMSO, aggregation counter-screen |  | remaining activity | 88%
Fc1ccccc1N1CCN(C2CCCN(Cc3cccc(C(F)(F)F)c3)C2)CC1 (stereo not drawn) | Trypanosoma cruzi | reporter translation, Renilla luciferase mRNA translation | cell-free extract | 40 µM | relative to: DMSO | inhibition | 0.4%
NCCNC(=O)c1ccc(Cl)cn1 | Voltage-dependent P/Q-type calcium channel subunit alpha-1A | ion current, antagonist | HEK293 | 3 µM |  | inhibition | 13%
COc1cc(Nc2ncc3c(n2)-c2ccc(Cl)cc2C(c2c(F)cccc2OC)=NC3)ccc1C(=O)O | MRCK alpha (CDC42BPA) | inhibitor, biochemical kinase |  | 1 µM |  | remaining activity | 100%
Nc1ncnc2c1ncn2[C@@H]1O[C@H](COP(=O)(O)OP(=O)(O)OP(=O)(O)O)[C@@H](O)[C@H]1O | P2X purinoceptor 1 (P2RX1, Homo sapiens, UniProt P51575, R139M) | ion current, two-electrode voltage clamp | Xenopus oocytes | concentration not given, 100% to 50% current decay |  | decay time | 771 ms
N[C@@H]1C[C@]1(F)c1ccc(C(F)(F)F)cc1 (relative stereo) | tyramine oxidase (Arthrobacter sp.) | substrate, Lineweaver-Burk plot |  |  |  | kcat | 0.11 ± 0.02 s⁻¹
C=CC[C@@H]1c2ccc(OC)c(OC)c2CN2CCc3cc4c(cc3[C@H]12)OCO4 | P2X purinoceptor 7 (P2rx7, Mus musculus, UniProt Q9Z1M0, A312V) | ATP-evoked current, inhibitor, whole-cell patch clamp | HEK293 transfected | 1 µM, mutant A312V, with: ATP 1 mM | relative to: ATP alone | inhibition ratio | 0.513 and 0.507 and 0.548
CC/C=C(\C)C=O | Uncharacterized protein PH0856 (Pyrococcus horikoshii, UniProt O58586) | substrate |  | pH 7, 40 °C, anaerobic, shaking 300 rpm, with: NADPH |  | conversion | 37%
O=C(O)C(O)C(O)C(=O)O.c1cnc2cc3c(cc2n1)[C@@H]1CNC[C@H]3C1 | Voltage-dependent P/Q-type calcium channel subunit alpha-1A | ion current, antagonist, automated patch clamp |  |  |  | IC30 | > 30 µM
O=[N+]([O-])c1cc(C(F)(F)F)ccc1NCc1ccco1 | Endothelial PAS domain-containing protein 1, PAS-B domain (EPAS1, Homo sapiens, UniProt Q99814) | binding, ITC, reverse mode |  |  |  | ΔH | -34.8 ± 0.669 kJ/mol

SMILES | target or system | assay | system | conditions | scale | measurement | value
Cc1cc(Oc2ncccc2CN2CCN(c3ccccc3C#N)CC2)ccc1-c1c(C)c(=O)[nH]c(=O)n1C | ADRA2C | binding, radioligand binding |  | with: [3H]rauwolscine | relative to: Ki alpha2A over Ki alpha2C | selectivity ratio | 2
N#CC(=Cc1ccc(OC(F)F)cc1)C(=O)N1CCCc2ccccc21 | UCHL1 | covalent, intact protein LC-MS |  | 12.5 µM |  | labelling | 31.7%
C=C1C(=O)O[C@@H]2C[C@@]3(C)CCCC(=C)[C@@H]3C[C@H]12 | HNF4A (Homo sapiens, UniProt P41235) | reporter gene, Gal4 hybrid reporter |  | 10 µM | relative to: vehicle | activation | 0.48 fold
CCOc1ccc(NC(=O)C(C#N)=Cc2ccc(-c3ccc(Cl)cc3)o2)cc1 | UCHL1 | covalent, intact protein LC-MS |  | 12.5 µM |  | labelling | 15.7%
O=c1nc(SCc2cc(F)cc(C(F)(F)F)c2)nc(SCc2csc3ccc(Cl)cc23)[nH]1 | TOP2B | decatenation |  | 125 µM |  | mean decatenated DNA | 0%
CC[C@@H]1[C@H](F)C(=O)N[C@@H]1COc1nccc2cc(C(N)=O)c(OC)cc12 | TLK2 (Homo sapiens, UniProt Q86UE8) | ATP-site probe binding, ActivX profiling | THP-1 cell lysate | 0.2 mM, Lys2 site |  | inhibition | 16.8%
CC(C)(C)c1ccc(C=C(C#N)C(=O)Nc2ccc(C(=O)O)cc2)cc1 | UCHL1 | covalent, intact protein LC-MS |  | 12.5 µM |  | labelling | 22.7%
CCN1CCC[C@H]1CNC(=O)c1c(O)c(Cl)cc(Cl)c1OC | G-protein coupled receptor 83 (GPR83, Homo sapiens, UniProt Q9NYM4) | β-arrestin recruitment, TANGO luminescence, item: GPR83 |  | concentration not given | relative to: basal luminescence | log2 fold change | -0.071
Nc1ncnc2c1ncn2[C@@H]1O[C@H](COP(=O)(O)OP(=O)(O)OP(=O)(O)O)[C@@H](O)[C@H]1O | T1, ssDNA, aptamer | ITC |  |  |  | Kd | 0.71 µM
O=C(C1=C(O)C(=O)N(c2ccccc2O)C1c1ccc([N+](=O)[O-])cc1)c1ccccc1 (stereo not drawn) | ESR1/YWHAZ, with 14-3-3 zeta (Homo sapiens, UniProt P03372+P63104) | 14-3-3ζ/ERα peptide binding, stabiliser, fluorescence polarization |  |  |  | EC1.2 | 75 µM
Cc1cc(Oc2ncccc2CN2CCN(c3ccc(F)c(F)c3)CC2)ccc1-c1c(C)c(=O)[nH]c(=O)n1C | ADRA2C | binding, radioligand binding |  | with: [3H]rauwolscine | relative to: Ki alpha2A over Ki alpha2C | selectivity ratio | 5
CC(=O)c1cccc(CN2CCCC(CCC(=O)NCc3ccccc3F)C2)c1 (stereo not drawn) | Trypanosoma cruzi | reporter translation, Renilla luciferase mRNA translation | cell-free extract | 40 µM | relative to: DMSO | inhibition | -13.5%
N[C@@H](Cc1ccc(O)c(O)c1)C(=O)O | Voltage-dependent P/Q-type calcium channel subunit alpha-1A | ion current, antagonist | HEK293 | 3 µM |  | inhibition | -6%
C=CC(=O)N1CCC(C(=O)NCC(=O)N2CCN(c3nc(-c4cnc(N)nc4C(F)F)nc(N4CCOCC4)n3)CC2)CC1 | PAK1 (Homo sapiens, UniProt Q13153) | KINOMEscan |  | 1 µM |  | remaining binding | 92%
COc1cccc2c1C(=O)c1c(O)c3c(c(O)c1C2=O)C[C@@](O)(C(=O)CO)C[C@@H]3O[C@H]1C[C@H](N)[C@H](O)[C@H](C)O1 | DNA topoisomerase I (calf thymus) | enzyme activity, inhibitor | Caco-2 | 50, 100, 500 ppm, 30 min, 37 °C |  | geometric mean inhibition | 77.9%
Nc1ncnc2c1ncn2[C@@H]1O[C@H](COP(=O)(O)CP(=O)(O)OP(=O)(O)O)[C@@H](O)[C@H]1O | P2X purinoceptor 1 (P2RX1, Homo sapiens, UniProt P51575, K140A) | saturation binding | HEK293 | 103 nM |  | specific binding | 4710 CCPM and 3280 CCPM and 7890 CCPM
COC(=O)Cc1ccc(C(=O)CCl)s1 | UCHL1 | covalent, intact protein LC-MS |  | 12.5 µM |  | labelling | 26.1%
O=C(O)c1ccc([N+](=O)[O-])cc1 | BEST1 (Homo sapiens, UniProt O76090) | whole-cell patch clamp | HEK293 transiently expressing channel | concentration not given, membrane potential 80 mV |  | current density | 103 pA/pF and 119 pA/pF and 56.6 pA/pF and 56.3 pA/pF and 117 pA/pF and 83 pA/pF and 168 pA/pF
COc1ccc(-c2csc(NC(=O)CCl)n2)c(OC)c1 | UCHL1 | covalent, intact protein LC-MS |  | 12.5 µM |  | labelling | 13.7%
C[C@H](CCC(C)(C)O)[C@H]1CC[C@H]2[C@@H]3CC=C4C[C@@](C)(O)CC[C@]4(C)[C@H]3CC[C@]12C | Glutamate NMDA receptor; GRIN1/GRIN2B (GRIN1/GRIN2B, Homo sapiens, UniProt Q05586+Q13224, S553A) | positive allosteric modulator, two-electrode voltage clamp | Xenopus oocytes expressing GluN1-S553A | 10 µM, 0.02% cremophor, with: 100 µM glutamate and glycine | relative to: without compound | current response | 90 ± 5.7%
O=c1nc(SCc2cc(F)cc(C(F)(F)F)c2)nc(SCc2ccc3nc(Cl)ccc3c2)[nH]1 | TOP2B | decatenation |  | 15.6 µM, replicate 2 |  | decatenated DNA | 24.5%
Cc1cn(C2CCN(Cc3cccc(Oc4ccc(Cl)c(Cl)c4)c3)CC2)c(=O)[nH]c1=O | Thymidylate kinase (DTYMK, Homo sapiens, UniProt P23919) | enzyme activity, inhibitor |  | no inhibition observed |  | highest concentration tested | > 40 µM
